Measured values of several laboratories.
Each line is one published result; not all experiments were run side by side. Numbers after ± are the reported error.
Organism: Plasmodium falciparum

`O[C@]12C=C(c3nccc4c3[nH]c3ccccc34)[C@@H]3CCN(CCCC/C=C\CC1)C[C@@]31C[C@@H]3/C=C\CCCCN3[C@H]12` has a selectivity index of 38 (W2, chloroquine-resistant; relative to: Vero IC50 over W2 IC50).
`CCN(CC)CCCC(C)Nc1ccnc2cc(Cl)ccc12` (stereo not shown) gave an EC50 of 586 ± 105 nM (parasite growth; W2Mef).
With `COc1ccc2cc1Oc1cc3c(cc1OC)CCN(C)C3Cc1ccc(cc1)Oc1c(O)c(OC)cc3c1C(C2)N(C)CC3` (stereo not shown) the inhibition was 100% (erythrocyte invasion; 1.34 µM).
With `CN1CCN(S(=O)(=O)c2ccc(-c3ccc4ncnc(Nc5ccc(F)cc5)c4c3)cc2)CC1` the EC50 was 380 nM (parasite growth, SYBR Green fluorescence; C235 (TM91C235), drug-resistant).
`OC(c1cc(C(F)(F)F)nc2c(C(F)(F)F)cccc12)C1CCCCN1` (stereo not shown) has an EC50 of 34.9 ± 0.5 nM (parasite growth; Dd2).
With `c1ccc(Nc2ncnc3ccc(-c4cccc(N5CCOCC5)c4)cc23)cc1` the EC50 was 3300 nM (parasite growth, SYBR Green fluorescence; W2, drug-resistant).
With `CCC1(CC)CC(=O)N(C2CCOc3ccc(C(=O)NC4CC(C)(C)Oc5ccccc54)cc32)C(=N)N1` (stereo not shown) the EC50 was 0.4 nM (parasite growth; Dd2-NITD609).
`O=C(c1ccc(-c2ccc3ncnc(Nc4ccc(OCc5cccc(F)c5)c(Cl)c4)c3c2)cc1)N1CCOCC1` gave an EC50 of 610 nM (parasite growth, SYBR Green fluorescence; C235 (TM91C235), drug-resistant).
With `C[C@@H]1CC[C@H]2[C@@H](C)C(=O)O[C@@H]3O[C@@]4(C)CC[C@@H]1[C@]32OO4` the IC50 was 6.02 ± 0.43 nM (parasite growth; 72 h).
`O=C1C(O)=C([C@H]2CC[C@H](c3ccc(Cl)cc3)CC2)C(=O)c2ccccc21` has an EC50 of 1.7 ± 0.5 nM (parasite growth; 3D7).
`Cc1nc2c(C#N)cccc2n1-c1ccc(C(=O)NC2CC2)s1` gave an EC50 of 5.95 ± 1.3 nM (parasite growth; Dd2).
For `COC(=O)C1=CO[C@@H](C)[C@@H]2Cn3ccc4c5ccccc5nc-4c3C[C@H]12`, the resistance index was 2 (growth, [3H]-hypoxanthine uptake; Dd2; 72 h; relative to: Dd2 IC50 over 3D7 IC50).
With `Cc1cc(Cl)ccc1OC(C)C(=O)N1CCc2ccccc21` (stereo not shown) the EC50 was 65.1 nM (parasite growth, SYBR Green; 3D7; 72 h).
For `c1ccc(COc2ccc(Nc3ncnc4ccc(-c5cccc(N6CCOCC6)c5)cc34)cc2)cc1`, the EC50 was greater than 15000 nM (parasite growth, SYBR Green fluorescence; C235 (TM91C235), drug-resistant).
`Nc1ncnc2c1c(-c1ccc(Oc3ccccc3)cc1)cn2C1CCCC1` gave a merozoite invasion of 47% (FVO, purified merozoites, erythrocytes; 25 µM).
With `COc1ccccc1-n1ccnc1SCC(=O)Nc1cc(C(F)(F)F)ccc1Cl` the EC50 was 31.2 ± 7.6 nM (parasite growth).
`C[C@H]1Cc2c([nH]c3cc(Cl)c(F)cc23)[C@@]2(N1)C(=O)Nc1ccc(Cl)cc12` gave an EC50 of 9.1 ± 1.4 nM (parasite growth; Dd2-NITD609).
The EC50 of `O=S(=O)(c1ccc(-c2ccc3ncnc(Nc4ccc(OCc5cccc(F)c5)c(Cl)c4)c3c2)cc1)N1CCCC1` is reported as 420 nM (parasite growth, SYBR Green fluorescence; C235 (TM91C235), drug-resistant).
`COc1ccccc1-n1c(SCC(=O)Nc2ccccc2F)nc2cccnc21` has an EC50 of 90.8 ± 68 nM (parasite growth).
`CCCCCOc1ccc(-c2ccc3ncnc(Nc4ccc(OCc5cccc(F)c5)c(Cl)c4)c3c2)c(F)c1F` gave an EC50 of greater than 15000 nM (parasite growth, SYBR Green; D6; blood stage).
`COc1cc2c3cc1Oc1cc(ccc1O)CC1c4c(cc(OC)c(O)c4Oc4ccc(cc4)CC3N(C)CC2)CCN1C` (stereo not shown) has an IC50 of 510 nM (parasite growth, SYBR Green; blood stage).
The EC50 of `Cc1nc2ccc(-c3ccc(OC(F)(F)F)cc3)cc2c(O)c1C#N` is reported as 125 ± 32 nM (parasite growth).
`CC(NC(=O)c1cccc(C(c2ccccc2)N2C(=N)NC(C)(C(C)C)CC2=O)c1)c1ccccc1` (stereo not shown) gave an EC50 of 5.8 nM (parasite growth; Dd2-ATV).
With `Fc1cccc(COc2ccc(Nc3ncnc4ccc(-c5ccc(CN6CCCCC6)cc5)cc34)cc2Cl)c1` the EC50 was 110 nM (parasite growth, SYBR Green fluorescence; W2, drug-resistant).
With `C[C@H](Oc1ccc(C(=O)c2ccc(F)cc2)cc1)C(=O)N1CCc2ccc(C(F)(F)F)cc21` the EC50 was less than 10 nM (parasite growth, SYBR Green; 3D7 wild type; 72 h).
For `COCCN(C)C(C)C(=O)NC(Cc1ccc(-c2ccccc2)cc1)B(O)O` (stereo not shown), the IC50 was 8480 ± 560 nM (compound-selected recrudescent clone 1E9_F9; 72 h).
`Cc1cc(Nc2ccc(Cl)cc2)n2nc(C(F)(F)F)nc2n1` gave an EC50 of 35.6 ± 12 nM (parasite growth; Dd2).
For `Fc1cccc(COc2ccc(Nc3ncnc4ccc(-c5ccccc5)cc34)cc2Cl)c1`, the EC50 was 2600 nM (parasite growth, SYBR Green fluorescence; W2, drug-resistant).

A few entries again:
For `COCCN(C)C(C)C(=O)NC(Cc1ccc(-c2ccccc2)cc1)B(O)O` (stereo not shown), the IC50 was 8480 ± 560 nM (compound-selected recrudescent clone 1E9_F9; 72 h).
`Cc1cc(Nc2ccc(Cl)cc2)n2nc(C(F)(F)F)nc2n1` gave an EC50 of 35.6 ± 12 nM (parasite growth; Dd2).
